Published values of several laboratories.
Parts stem from different laboratories: compare values within a part only.
UniProt P45985, sequence (whole entry, looked up): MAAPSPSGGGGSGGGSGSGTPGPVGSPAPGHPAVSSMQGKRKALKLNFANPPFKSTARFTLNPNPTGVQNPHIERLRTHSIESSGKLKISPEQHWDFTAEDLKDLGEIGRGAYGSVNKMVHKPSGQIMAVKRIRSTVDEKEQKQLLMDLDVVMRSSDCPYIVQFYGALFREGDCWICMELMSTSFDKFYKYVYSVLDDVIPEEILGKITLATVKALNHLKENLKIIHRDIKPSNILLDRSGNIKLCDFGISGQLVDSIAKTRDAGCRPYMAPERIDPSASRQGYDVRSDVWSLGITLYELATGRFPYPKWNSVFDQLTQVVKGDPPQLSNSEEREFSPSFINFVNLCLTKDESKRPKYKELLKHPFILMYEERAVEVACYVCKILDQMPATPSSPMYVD
UniProt Q13873, sequence (whole entry, looked up): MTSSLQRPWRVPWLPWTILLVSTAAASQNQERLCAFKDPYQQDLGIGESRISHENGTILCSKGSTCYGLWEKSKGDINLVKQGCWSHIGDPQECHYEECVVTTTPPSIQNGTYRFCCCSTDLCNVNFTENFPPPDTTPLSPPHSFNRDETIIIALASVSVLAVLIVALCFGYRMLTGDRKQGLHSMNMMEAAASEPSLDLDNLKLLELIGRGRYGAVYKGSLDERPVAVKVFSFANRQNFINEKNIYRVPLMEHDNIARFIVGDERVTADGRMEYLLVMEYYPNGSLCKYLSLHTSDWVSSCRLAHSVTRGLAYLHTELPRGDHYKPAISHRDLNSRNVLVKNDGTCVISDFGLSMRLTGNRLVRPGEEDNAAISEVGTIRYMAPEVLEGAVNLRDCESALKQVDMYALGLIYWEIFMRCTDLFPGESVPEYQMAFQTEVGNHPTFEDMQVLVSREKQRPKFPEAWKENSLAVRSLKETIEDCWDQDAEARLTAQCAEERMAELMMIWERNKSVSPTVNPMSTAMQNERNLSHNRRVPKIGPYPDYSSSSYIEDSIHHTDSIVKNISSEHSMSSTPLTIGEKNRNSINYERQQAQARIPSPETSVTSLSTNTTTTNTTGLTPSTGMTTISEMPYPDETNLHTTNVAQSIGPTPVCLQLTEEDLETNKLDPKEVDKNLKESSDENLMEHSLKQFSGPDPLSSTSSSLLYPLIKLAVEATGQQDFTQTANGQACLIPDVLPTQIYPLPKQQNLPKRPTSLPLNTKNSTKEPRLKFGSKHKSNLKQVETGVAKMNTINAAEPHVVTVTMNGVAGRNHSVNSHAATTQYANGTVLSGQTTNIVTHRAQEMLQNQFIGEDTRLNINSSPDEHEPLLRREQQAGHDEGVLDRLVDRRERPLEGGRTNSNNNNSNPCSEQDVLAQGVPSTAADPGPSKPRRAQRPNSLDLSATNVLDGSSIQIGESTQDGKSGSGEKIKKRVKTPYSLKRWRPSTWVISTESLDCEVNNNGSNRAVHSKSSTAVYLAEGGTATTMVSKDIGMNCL
UniProt P30291, sequence (whole entry, looked up): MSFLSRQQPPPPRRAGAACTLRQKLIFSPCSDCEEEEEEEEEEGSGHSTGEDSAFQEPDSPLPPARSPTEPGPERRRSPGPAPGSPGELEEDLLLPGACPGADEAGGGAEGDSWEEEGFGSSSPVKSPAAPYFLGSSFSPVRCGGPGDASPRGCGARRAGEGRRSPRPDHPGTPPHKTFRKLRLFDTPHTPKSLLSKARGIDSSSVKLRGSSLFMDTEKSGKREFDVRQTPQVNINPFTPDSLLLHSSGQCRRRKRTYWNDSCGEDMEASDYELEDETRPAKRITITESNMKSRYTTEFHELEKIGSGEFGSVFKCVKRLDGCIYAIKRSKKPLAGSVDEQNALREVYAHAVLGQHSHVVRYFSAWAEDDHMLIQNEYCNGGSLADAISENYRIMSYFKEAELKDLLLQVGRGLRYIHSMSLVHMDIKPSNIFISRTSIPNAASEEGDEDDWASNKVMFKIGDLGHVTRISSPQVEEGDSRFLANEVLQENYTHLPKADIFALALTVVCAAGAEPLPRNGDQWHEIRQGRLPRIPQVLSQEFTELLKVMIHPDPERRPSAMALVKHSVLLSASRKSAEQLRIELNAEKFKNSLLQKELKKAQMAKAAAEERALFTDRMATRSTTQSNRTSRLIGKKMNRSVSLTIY
UniProt Q15375, sequence (whole entry, looked up): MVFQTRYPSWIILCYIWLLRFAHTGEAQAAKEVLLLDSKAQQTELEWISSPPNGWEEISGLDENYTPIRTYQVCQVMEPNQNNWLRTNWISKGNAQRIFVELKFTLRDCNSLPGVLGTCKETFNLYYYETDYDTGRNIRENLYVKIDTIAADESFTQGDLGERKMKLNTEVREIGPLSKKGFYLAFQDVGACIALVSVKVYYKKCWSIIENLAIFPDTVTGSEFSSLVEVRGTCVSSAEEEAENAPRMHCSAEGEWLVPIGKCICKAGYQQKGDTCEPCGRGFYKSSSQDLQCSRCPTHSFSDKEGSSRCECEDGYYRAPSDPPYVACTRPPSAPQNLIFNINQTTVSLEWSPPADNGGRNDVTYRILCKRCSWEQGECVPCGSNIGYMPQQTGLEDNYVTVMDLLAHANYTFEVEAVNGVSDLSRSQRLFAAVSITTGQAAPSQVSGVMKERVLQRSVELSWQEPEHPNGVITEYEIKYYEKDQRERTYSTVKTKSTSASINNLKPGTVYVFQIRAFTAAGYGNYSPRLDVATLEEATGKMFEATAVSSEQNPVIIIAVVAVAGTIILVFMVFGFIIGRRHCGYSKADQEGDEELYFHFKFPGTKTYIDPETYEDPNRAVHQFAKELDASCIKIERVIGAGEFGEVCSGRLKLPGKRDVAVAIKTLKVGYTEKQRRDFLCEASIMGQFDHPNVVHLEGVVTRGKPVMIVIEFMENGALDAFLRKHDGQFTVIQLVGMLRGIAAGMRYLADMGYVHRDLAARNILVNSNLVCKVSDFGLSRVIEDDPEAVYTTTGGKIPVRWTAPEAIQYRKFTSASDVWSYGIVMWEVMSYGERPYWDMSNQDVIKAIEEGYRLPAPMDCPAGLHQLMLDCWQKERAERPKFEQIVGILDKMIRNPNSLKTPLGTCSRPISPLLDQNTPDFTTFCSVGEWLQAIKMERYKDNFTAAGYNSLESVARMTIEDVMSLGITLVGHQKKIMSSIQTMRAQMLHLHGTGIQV
UniProt O75716, sequence (whole entry, looked up): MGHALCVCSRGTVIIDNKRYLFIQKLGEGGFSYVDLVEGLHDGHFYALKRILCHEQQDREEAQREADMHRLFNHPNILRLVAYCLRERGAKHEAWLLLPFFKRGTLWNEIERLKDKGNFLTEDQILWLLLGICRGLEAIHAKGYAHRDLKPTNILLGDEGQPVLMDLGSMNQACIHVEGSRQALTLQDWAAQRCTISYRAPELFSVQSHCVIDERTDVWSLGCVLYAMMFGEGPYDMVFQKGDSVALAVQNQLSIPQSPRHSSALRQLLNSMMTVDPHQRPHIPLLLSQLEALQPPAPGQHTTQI
UniProt Q9NSY1, sequence (whole entry, looked up): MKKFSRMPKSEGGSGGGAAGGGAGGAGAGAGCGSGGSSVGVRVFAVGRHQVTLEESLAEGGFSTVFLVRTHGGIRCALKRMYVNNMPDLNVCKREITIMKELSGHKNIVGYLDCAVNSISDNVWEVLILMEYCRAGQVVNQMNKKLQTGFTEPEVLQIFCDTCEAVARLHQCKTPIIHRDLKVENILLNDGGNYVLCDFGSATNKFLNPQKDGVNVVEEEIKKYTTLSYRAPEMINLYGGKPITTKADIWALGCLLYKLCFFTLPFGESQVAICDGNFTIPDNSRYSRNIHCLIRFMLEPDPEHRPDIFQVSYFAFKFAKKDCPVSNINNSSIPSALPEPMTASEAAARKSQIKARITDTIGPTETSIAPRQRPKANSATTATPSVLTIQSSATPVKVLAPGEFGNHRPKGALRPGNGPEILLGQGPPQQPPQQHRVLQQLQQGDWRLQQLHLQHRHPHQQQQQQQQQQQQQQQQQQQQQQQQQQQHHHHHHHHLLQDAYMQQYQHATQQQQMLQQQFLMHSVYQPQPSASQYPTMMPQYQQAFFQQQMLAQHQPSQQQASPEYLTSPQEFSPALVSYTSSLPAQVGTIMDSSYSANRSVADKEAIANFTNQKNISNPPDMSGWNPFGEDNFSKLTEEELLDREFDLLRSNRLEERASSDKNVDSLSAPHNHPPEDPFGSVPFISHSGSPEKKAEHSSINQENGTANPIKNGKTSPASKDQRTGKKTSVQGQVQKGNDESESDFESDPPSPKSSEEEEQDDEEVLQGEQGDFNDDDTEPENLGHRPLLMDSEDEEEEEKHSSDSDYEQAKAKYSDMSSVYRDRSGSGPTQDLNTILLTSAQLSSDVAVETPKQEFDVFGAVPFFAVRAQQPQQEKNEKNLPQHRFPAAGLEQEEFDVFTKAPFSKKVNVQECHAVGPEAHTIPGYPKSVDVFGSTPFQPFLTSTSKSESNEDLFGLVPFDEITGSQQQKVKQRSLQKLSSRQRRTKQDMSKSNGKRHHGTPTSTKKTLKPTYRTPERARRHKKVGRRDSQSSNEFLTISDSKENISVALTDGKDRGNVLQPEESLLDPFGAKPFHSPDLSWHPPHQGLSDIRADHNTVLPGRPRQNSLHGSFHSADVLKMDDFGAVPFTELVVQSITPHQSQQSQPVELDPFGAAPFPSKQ

Block 1 — observed: enzyme activity; mode: inhibitor; concentration: 10 µM
Target: Calcium/calmodulin-dependent protein kinase type II subunit alpha (CAMK2A, Homo sapiens, UniProt Q9UQM7)
UniProt Q9UQM7, sequence (whole entry, looked up): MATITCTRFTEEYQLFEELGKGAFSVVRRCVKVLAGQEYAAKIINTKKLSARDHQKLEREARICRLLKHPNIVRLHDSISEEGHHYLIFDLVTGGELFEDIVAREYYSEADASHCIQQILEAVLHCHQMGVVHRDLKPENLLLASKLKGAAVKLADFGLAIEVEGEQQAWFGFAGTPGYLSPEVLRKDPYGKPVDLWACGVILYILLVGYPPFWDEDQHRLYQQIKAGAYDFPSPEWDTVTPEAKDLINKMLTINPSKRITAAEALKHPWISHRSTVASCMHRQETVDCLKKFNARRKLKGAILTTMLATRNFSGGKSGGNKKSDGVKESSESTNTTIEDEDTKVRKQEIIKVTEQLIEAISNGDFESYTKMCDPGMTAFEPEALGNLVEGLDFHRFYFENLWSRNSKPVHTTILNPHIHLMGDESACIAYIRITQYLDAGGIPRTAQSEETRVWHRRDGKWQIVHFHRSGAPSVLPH
| SMILES | inhibition |
| --- | --- |
| c1cn[nH]c1 | -5% |
| COc1cccc(CCc2cc(O)cc(OC)c2)c1 | -42% |
| CO[C@@H]1[C@@H](O[C@@H]2O[C@H](C)[C@@H](O[C@H]3C[C@@](C)(O)[C@@H](O)[C@H](C)O3)[C@H](N(C)C)[C@H]2O)[C@@H](CC=O)C[C@@H](C)[C@@H](O[C@H]2CC[C@H](N(C)C)[C@@H](C)O2)/C=C/C=C/C[C@@H](C)OC(=O)C[C@H]1OC(C)=O | -17% |
| CC(=O)O[C@@H]1C[C@H](O)[C@@]23CO[C@@H](O)[C@]1(C)[C@@H]2C[C@@H](O)[C@]1(C)[C@@H]3C(=O)[C@H](OC(C)=O)[C@@]2(C)[C@H](c3ccoc3)C[C@H]3O[C@]321 | 24% |
| C[C@H](Cc1ccc(O)c(O)c1)[C@@H](C)Cc1ccc(O)c(O)c1 | 3% |
| COc1cc2c(cc1OC)-c1cc3ccc4c(c3c(=O)n1CC2)OCO4 | 7% |
| O=C(O)/C=C\c1cc2ccoc2cc1O[C@@H]1O[C@H](CO)[C@@H](O)[C@H](O)[C@H]1O | -23% |

Block 2 — concentration: 5 µM
SMILES: O=C(Nc1cnn(-c2csc(C(=O)NC3COC3)c2)c1)Nc1c(F)cccc1Cl
| target | test | how to read | remaining activity [%] |
| --- | --- | --- | --- |
| PRKG1 (Homo sapiens, UniProt Q13976) | kinase activity, kinase panel profiling |  | 93.2 |
| BMPR2 (Homo sapiens, UniProt Q13873) | enzyme activity | relative to: untreated control | 74.9 |
| TLK2 (Homo sapiens, UniProt Q86UE8) | enzyme activity | relative to: untreated control | 106 |
| NIM1K (Homo sapiens, UniProt Q8IY84) | enzyme activity | relative to: untreated control | 69.8 |
| MAP2K4 (Homo sapiens, UniProt P45985) | enzyme activity, inhibitor |  | 133 |
| BMPR1A (Homo sapiens, UniProt P36894) | enzyme activity | relative to: untreated control | 100 |
| Tyrosine-protein kinase Lyn, isoform B (LYN, Homo sapiens, UniProt P07948) | enzyme activity | relative to: untreated control | 87.3 |
| CSF1R (Homo sapiens, UniProt P07333) | enzyme activity | relative to: untreated control | 97.4 |
| MAP4K1 (Homo sapiens, UniProt Q92918) | enzyme activity, inhibitor |  | 92.7 |
| PRKCH (Homo sapiens, UniProt P24723) | enzyme activity | relative to: untreated control | 97.4 |
| ERN2 (Homo sapiens, UniProt Q76MJ5) | enzyme activity | relative to: untreated control | 98.5 |
| Protein kinase C beta type, isoform beta-I (PRKCB, Homo sapiens, UniProt P05771) | enzyme activity | relative to: untreated control | 98.7 |
| PIM2 (Homo sapiens, UniProt Q9P1W9) | enzyme activity | relative to: untreated control | 127 |

Block 3 — concentration: 1 µM
SMILES: O=C(Nc1ccc(Oc2ccc(F)cc2)cc1)N1CCc2ncccc2[C@H]1c1ccc(F)cc1
| target | test | remaining binding |
| --- | --- | --- |
| FLT3 (Homo sapiens, UniProt P36888, D835H) | cell-free assay, competition with immobilised ligand | 86% |
| AAK1 (Homo sapiens, UniProt Q2M2I8) | binding | 95% |
| SRC (Homo sapiens, UniProt P12931) | cell-free assay, competition with immobilised ligand | 91% |
| MAP2K4 (Homo sapiens, UniProt P45985) | cell-free assay, competition with immobilised ligand | 86% |
| MAP4K2 (Homo sapiens, UniProt Q12851) | cell-free assay, competition with immobilised ligand | 95% |
| STK16 (Homo sapiens, UniProt O75716) | cell-free assay, competition with immobilised ligand | 100% |
| BMPR1B (Homo sapiens, UniProt O00238) | cell-free assay, competition with immobilised ligand | 87% |
| Tyrosine-protein kinase ABL1, non-phosphorylated (ABL1, Homo sapiens, UniProt P00519, F317L) | cell-free assay, competition with immobilised ligand | 70% |
| STK36 (Homo sapiens, UniProt Q9NRP7) | cell-free assay, competition with immobilised ligand | 89% |
| FLT3 (Homo sapiens, UniProt P36888, D835V/ITD) | cell-free assay, competition with immobilised ligand | 93% |
| EPHA7 (Homo sapiens, UniProt Q15375) | cell-free assay, competition with immobilised ligand | 90% |
| TXK (Homo sapiens, UniProt P42681) | binding, competition with immobilised ligand | 100% |
| MARK4 (Homo sapiens, UniProt Q96L34) | cell-free assay, competition with immobilised ligand | 86% |
| MAP3K1 (Homo sapiens, UniProt Q13233) | cell-free assay, competition with immobilised ligand | 87% |
| MYLK2 (Homo sapiens, UniProt Q9H1R3) | cell-free assay, competition with immobilised ligand | 100% |
| MAP3K4 (Homo sapiens, UniProt Q9Y6R4) | cell-free assay, competition with immobilised ligand | 100% |
| BMP2K (Homo sapiens, UniProt Q9NSY1) | cell-free assay, competition with immobilised ligand | 94% |
| STK10 (Homo sapiens, UniProt O94804) | cell-free assay, competition with immobilised ligand | 100% |
| TTK (Homo sapiens, UniProt P33981) | cell-free assay, competition with immobilised ligand | 94% |
| MKNK2 (Homo sapiens, UniProt Q9HBH9) | cell-free assay, competition with immobilised ligand | 91% |
| Ribosomal protein S6 kinase alpha-4, N-terminal kinase domain (RPS6KA4, Homo sapiens, UniProt O75676) | cell-free assay, competition with immobilised ligand | 94% |
| CDC42BPB (Homo sapiens, UniProt Q9Y5S2) | cell-free assay, competition with immobilised ligand | 88% |
| CDK13 (Homo sapiens, UniProt Q14004) | cell-free assay, competition with immobilised ligand | 100% |
| WEE1 (Homo sapiens, UniProt P30291) | cell-free assay, competition with immobilised ligand | 100% |
| CSNK1D (Homo sapiens, UniProt P48730) | cell-free assay, competition with immobilised ligand | 90% |

Block 4 — species: human; medium: microsomes or S9; concentration: 2 µM; time: 0.5 h
| SMILES | remaining compound |
| --- | --- |
| COc1cc(OC)nc(Oc2ccc(OC(C)C(=O)O)cc2)n1 (stereo not shown) | 40.8% |
| Fc1ccc(-n2cc(C3CCCCN3)nn2)cc1Cl (stereo not shown) | 84.5% |
| O=C(CCC1N=C(O)N(Cc2ccco2)C1=O)Nc1ccc2cc[nH]c2c1 (stereo not shown) | 97.4% |
| Cc1nc2c(NC3CCN(S(=O)(=O)C4CC4)CC3)cccn2n1 | > 100% |
| CC1CC(=O)NN=C1c1ccc(-n2ccnc2)c(F)c1 (stereo not shown) | 105% |
| N#Cc1c(-c2ccccc2)cc(O)n2c1nc1ccccc12 | 59% |
| Cc1nccc(CNc2c(C#N)cnc3c(F)ccc(Cl)c23)n1 | 12.7% |
| O=C(Cn1cc(-c2ccccc2)ncc1=O)NCCn1ccc2ccc(Br)cc21 | 5.11% |
| Cc1nc(S(=O)(=O)Nc2cnc3ccnn3c2)cn1C | > 100% |
| O=c1c(-c2nc3ccccc3nc2O)c[nH]n1-c1ccccc1 | 44.6% |
| CCc1cccc(N2C(=O)Nc3ccccc3N2O)c1 | 64.3% |
| CCOC(=O)/C(=C/OC)n1c(COc2ccc(C)cc2C)noc1=O | 1.03% |
| COCCNC(=O)C(c1ccc(Cl)cc1)N(CCOC)C(=O)CCC(=O)Nc1ccccn1 (stereo not shown) | 20.6% |
